{"data": "Measurements from different studies", "T1": "G-quadruplex DNA (Homo sapiens); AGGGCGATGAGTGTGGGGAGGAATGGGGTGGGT", "T2": "riboswitch RNA, fused to Pepper aptamer; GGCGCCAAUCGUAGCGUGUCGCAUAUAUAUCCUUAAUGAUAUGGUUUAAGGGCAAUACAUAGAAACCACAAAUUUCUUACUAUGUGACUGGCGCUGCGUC", "note": "Protocols differ between the studies behind these lines. Values joined by “and” are separate records of one study, mostly repeats; a detail may differ. ± marks the error that the study gave.", "UniProt Q9NYV4, sequence (whole entry, looked up)": "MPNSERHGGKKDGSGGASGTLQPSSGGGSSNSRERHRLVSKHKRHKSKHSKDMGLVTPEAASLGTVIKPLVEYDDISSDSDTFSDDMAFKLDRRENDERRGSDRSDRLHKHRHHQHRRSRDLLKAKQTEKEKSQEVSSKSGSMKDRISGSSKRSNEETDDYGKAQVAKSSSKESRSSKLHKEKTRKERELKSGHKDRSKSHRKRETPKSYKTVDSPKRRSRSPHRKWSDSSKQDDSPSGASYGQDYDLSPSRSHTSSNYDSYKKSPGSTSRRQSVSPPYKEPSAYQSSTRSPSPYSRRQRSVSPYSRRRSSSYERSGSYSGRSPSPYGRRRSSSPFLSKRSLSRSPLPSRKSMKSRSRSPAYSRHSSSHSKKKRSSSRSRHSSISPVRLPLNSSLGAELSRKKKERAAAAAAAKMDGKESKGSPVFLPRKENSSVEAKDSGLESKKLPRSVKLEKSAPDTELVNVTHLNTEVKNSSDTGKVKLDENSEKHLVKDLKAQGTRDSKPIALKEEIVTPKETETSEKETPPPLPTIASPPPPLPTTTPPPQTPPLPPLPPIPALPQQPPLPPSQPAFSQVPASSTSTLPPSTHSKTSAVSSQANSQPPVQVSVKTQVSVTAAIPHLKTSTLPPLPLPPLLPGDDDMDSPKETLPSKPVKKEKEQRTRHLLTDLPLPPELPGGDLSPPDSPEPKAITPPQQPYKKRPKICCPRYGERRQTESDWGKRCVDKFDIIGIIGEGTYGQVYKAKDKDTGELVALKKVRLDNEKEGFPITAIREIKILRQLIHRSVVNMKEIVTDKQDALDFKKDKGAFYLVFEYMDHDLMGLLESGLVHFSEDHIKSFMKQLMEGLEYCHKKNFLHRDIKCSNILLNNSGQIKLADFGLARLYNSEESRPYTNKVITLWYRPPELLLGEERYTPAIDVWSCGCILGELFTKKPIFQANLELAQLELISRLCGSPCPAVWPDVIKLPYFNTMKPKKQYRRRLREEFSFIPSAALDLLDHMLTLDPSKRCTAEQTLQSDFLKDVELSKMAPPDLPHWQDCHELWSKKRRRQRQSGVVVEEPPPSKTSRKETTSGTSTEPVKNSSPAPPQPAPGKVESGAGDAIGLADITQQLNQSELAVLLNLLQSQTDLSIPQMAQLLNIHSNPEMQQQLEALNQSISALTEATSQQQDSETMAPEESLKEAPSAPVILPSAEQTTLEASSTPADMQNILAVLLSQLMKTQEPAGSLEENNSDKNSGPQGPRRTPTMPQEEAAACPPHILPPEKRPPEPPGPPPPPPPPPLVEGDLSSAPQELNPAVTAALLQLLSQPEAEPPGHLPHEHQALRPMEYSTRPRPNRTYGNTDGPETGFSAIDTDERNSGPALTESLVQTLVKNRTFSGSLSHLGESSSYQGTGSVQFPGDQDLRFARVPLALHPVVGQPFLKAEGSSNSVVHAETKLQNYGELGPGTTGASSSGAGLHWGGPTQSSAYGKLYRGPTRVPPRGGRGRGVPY", "UniProt P30531, sequence (whole entry, looked up)": "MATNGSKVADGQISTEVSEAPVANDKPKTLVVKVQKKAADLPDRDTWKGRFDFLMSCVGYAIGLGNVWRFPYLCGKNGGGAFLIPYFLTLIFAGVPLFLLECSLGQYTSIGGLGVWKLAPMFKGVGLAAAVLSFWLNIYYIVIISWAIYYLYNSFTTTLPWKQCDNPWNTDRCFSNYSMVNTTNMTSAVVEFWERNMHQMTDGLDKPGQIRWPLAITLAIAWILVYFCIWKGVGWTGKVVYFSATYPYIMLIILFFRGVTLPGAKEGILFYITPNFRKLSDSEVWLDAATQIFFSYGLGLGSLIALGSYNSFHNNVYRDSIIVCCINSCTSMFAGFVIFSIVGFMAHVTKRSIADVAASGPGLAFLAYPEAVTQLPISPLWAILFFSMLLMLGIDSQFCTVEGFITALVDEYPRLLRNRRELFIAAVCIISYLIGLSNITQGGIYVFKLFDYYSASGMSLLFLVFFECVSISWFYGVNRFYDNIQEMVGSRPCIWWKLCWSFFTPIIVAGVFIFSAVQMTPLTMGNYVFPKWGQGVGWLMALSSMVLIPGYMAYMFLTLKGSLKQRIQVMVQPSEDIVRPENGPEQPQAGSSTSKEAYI", "UniProt P28482, sequence (whole entry, looked up)": "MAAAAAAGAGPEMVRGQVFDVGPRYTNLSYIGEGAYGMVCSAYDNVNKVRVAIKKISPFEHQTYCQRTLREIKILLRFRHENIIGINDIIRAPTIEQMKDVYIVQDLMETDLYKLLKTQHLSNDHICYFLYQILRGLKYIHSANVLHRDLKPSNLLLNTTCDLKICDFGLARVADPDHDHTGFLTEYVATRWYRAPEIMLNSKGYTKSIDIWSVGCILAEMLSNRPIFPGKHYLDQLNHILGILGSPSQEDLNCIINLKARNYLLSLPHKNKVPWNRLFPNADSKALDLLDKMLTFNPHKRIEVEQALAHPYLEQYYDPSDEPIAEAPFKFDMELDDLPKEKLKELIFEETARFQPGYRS", "UniProt P08684, sequence (whole entry, looked up)": "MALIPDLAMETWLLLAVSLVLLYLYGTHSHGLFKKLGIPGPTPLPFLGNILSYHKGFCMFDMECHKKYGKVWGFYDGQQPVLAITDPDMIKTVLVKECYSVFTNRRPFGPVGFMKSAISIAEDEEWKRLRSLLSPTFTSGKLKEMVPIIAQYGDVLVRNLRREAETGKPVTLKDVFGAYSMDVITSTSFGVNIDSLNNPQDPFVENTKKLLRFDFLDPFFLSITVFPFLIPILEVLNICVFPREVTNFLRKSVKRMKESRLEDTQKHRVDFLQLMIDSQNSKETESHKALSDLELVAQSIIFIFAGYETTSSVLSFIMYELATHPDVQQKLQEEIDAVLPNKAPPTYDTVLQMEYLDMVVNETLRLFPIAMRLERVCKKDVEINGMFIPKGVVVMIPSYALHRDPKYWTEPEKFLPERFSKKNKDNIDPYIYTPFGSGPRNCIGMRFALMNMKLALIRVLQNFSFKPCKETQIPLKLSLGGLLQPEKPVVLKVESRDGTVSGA", "UniProt P34972, sequence (whole entry, looked up)": "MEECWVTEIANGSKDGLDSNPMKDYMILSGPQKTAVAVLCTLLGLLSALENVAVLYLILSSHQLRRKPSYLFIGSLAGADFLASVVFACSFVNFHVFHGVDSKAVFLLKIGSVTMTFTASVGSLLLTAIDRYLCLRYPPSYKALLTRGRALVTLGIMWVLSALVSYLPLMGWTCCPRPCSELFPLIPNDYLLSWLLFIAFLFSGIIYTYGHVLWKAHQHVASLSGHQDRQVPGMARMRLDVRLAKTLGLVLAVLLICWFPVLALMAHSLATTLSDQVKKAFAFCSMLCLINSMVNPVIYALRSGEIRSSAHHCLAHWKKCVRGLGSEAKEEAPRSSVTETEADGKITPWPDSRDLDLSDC", "UniProt P55210, sequence (whole entry, looked up)": "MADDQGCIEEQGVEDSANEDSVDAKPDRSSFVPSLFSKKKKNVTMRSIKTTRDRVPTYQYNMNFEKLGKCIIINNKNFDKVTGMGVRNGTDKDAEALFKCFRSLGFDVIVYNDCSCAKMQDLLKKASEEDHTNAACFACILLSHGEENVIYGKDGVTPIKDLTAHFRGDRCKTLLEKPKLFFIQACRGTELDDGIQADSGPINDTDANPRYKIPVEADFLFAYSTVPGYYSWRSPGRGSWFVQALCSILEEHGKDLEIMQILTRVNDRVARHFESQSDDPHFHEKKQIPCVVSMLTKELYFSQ", "UniProt P19491, sequence (whole entry, looked up)": "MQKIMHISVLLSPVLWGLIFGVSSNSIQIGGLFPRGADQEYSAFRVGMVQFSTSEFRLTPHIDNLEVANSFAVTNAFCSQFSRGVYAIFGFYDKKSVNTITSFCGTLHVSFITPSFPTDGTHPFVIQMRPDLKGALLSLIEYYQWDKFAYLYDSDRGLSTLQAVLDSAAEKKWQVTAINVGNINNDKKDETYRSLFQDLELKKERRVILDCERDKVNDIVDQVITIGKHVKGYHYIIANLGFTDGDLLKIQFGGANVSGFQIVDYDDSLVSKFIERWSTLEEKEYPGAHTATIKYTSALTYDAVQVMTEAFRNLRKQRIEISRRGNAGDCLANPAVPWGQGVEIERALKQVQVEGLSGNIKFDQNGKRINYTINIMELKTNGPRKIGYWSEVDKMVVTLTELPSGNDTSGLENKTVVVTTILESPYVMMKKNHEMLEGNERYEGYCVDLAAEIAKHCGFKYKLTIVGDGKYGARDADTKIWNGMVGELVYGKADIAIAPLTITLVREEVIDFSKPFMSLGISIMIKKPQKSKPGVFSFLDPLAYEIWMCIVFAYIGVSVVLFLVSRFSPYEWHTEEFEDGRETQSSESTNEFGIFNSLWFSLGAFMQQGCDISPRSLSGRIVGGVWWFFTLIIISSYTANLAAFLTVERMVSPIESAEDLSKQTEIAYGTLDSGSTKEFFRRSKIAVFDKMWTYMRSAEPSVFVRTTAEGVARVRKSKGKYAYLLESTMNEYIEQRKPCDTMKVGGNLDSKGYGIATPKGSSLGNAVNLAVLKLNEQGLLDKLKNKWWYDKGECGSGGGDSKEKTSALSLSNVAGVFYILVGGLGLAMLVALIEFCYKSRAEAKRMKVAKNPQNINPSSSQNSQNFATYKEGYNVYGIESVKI", "UniProt P21728, sequence (whole entry, looked up)": "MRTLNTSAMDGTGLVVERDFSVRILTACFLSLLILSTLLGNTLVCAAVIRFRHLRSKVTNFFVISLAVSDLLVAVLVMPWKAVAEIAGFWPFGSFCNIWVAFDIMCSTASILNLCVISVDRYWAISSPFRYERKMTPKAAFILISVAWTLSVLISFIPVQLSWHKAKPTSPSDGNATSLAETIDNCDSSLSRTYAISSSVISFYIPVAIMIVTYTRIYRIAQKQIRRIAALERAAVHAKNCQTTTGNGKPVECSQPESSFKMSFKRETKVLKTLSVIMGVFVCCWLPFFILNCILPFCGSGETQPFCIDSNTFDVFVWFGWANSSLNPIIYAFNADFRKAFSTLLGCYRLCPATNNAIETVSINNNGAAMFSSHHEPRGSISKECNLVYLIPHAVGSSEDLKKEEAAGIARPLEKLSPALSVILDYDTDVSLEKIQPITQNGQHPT"}
{"SMILES": "CCCCCC(O)/C=C/C=O (stereo not shown)", "tested on": "CCT8 (Homo sapiens, UniProt P50990)", "assay": "competitive isoTOP-ABPP", "test system": "Ramos soluble proteome", "setting": "100 µM, 60 min, together with: iodoacetamide probe", "how to read": "baseline: DMSO over compound-treated, higher = stronger cysteine blockade", "measurement": "isoTOP-ABPP competition ratio", "result": 1.1}
{"SMILES": "CCOC(=O)[C@](CC)(CCCSCCOCCOCCN)NC(=O)c1ccc(C2CC2)c(Cc2ccc(F)cc2)n1", "tested on": "CNR2 (Homo sapiens, UniProt P34972)", "assay": "cAMP level", "setting": "together with: forskolin", "how to read": "baseline: CB1 over CB2 (human)", "measurement": "EC50 ratio", "result": 114}
{"SMILES": "Cc1ccc(-n2cc(CNC(=O)c3cncc(Br)c3)cn2)cc1", "tested on": "human kinase panel", "assay": "binding, KINOMEscan", "setting": "10000 nM, %Ctrl below 1", "measurement": "number of kinases hit", "result": 0}
{"SMILES": "COc1ccc(C(OCCN2CCCC(C(=O)O)C2)(c2ccc(OC)cc2)c2ccc(OC)cc2)cc1 (stereo not shown)", "tested on": "SLC6A1 (Homo sapiens, UniProt P30531)", "assay": "GABA transport, inhibitor, radioligand uptake", "test system": "HEK293F transfected", "setting": "100 µM, 15 min pre, 45 min uptake, room temperature, together with: [3H]-GABA 30 nM, GABA 25 µM", "how to read": "higher = more uptake", "measurement": "[3H]-GABA uptake", "result": "792 a.u. and 386 a.u. and 1450 a.u. and 1200 a.u. and 356 a.u. and 590 a.u. and 756 a.u. and 449 a.u."}
{"SMILES": "Cc1ncsc1-c1ccc(C(C)NC(=O)C2CC(O)CN2C(=O)C(NC(=O)CCCCCCCCCCN2CCCC(Nc3ncc(Cl)c(Nc4ccccc4S(=O)(=O)C(C)C)n3)C2)C(C)(C)C)cc1 (stereo not shown)", "tested on": "22Rv1", "assay": "RNA-seq, measured: ZHX2 mRNA", "setting": "concentration not given", "how to read": "baseline: DMSO", "measurement": "log2 fold change", "result": -1.51}
{"SMILES": "O=C(Nc1cnccc1-c1ccc([18F])nc1)c1ccnc(NC(=O)C2CC2)c1", "assay": "ex vivo gamma counting", "test system": "FVB/NJ mice, both sexes, adipose tissue", "setting": "intravenous, 120 min, together with: tariquidar 15 mg/kg iv", "measurement": "mean SUV", "result": 0.079}
{"SMILES": "Cc1nn(-c2cccc(N)c2)c(=O)c2cnc(Nc3ccc(N4CCNCC4)cc3)nc12", "tested on": "BLK (Homo sapiens, UniProt P51451)", "assay": "kinase activity, inhibitor, SelectScreen kinase profiling", "measurement": "IC50", "result": "1500 nM"}
{"SMILES": "Fc1ccc(Nc2nc(NC3CCCCC3)c3ccccc3n2)cc1F", "tested on": "ADRB2 (Homo sapiens, UniProt P07550, N148A)", "assay": "β-arrestin2 recruitment, antagonist, BRET", "setting": "mutant N148A", "how to read": "baseline: isoprenaline maximal response", "measurement": "maximal inhibition", "result": "-0.3%"}
{"SMILES": "N[C@H]1CC[C@H](Nc2nccc(-c3cccnc3Oc3ccc(NC(=O)NC4CC4)c4ccccc34)n2)CC1", "tested on": "CDK12 (Homo sapiens, UniProt Q9NYV4)", "assay": "kinobead competition pulldown", "test system": "HEK293/HCT116 lysate mixture", "setting": "10 µM, 1 h, 4 °C", "how to read": "lower = stronger competition", "measurement": "log2 LFQ intensity", "result": 25.6}
{"SMILES": "CCCCCCCCCCCCCCCC(=O)OCC(CSC[C@H](N)C(=O)N[C@@H](CO)C(=O)N[C@@H](CCCCN)C(=O)N[C@@H](CCCCN)C(=O)N[C@@H](CCCCN)C(=O)N[C@@H](CCCCN)C(=O)NCCCCCC(=O)N[C@@H](CCCCN)C(=O)N[C@@H](CC(C)C)C(=O)N[C@H](C(=O)N[C@@H](Cc1ccccc1)C(=O)N[C@@H](Cc1ccccc1)C(=O)N[C@@H](Cc1ccc2ccccc2c1)C(=O)O)C(C)C)OC(=O)CCCCCCCCCCCCCCC (stereo partly shown)", "tested on": "Amyloid-beta precursor protein, fibrillar amyloid-beta (APP, Homo sapiens, UniProt P05067)", "assay": "TEM", "setting": "2.0 eq, 18 h, fibril 2, together with: APP 20 µM", "measurement": "fibril diameter", "result": "17.4 nm"}
{"SMILES": "COC1CN([C@H]2CC[C@H]([C@@]3(C)Oc4c(Cl)cc(C(=O)NCc5c(SC)cc(C)[nH]c5=O)c(C)c4O3)CC2)C1", "assay": "RNA-seq, measured: ADGRG6 mouse homolog", "test system": "mouse, HT-1376 xenograft, whole blood", "setting": "dose not given", "how to read": "baseline: vehicle", "measurement": "log2 fold change", "result": 0.715}
{"SMILES": "CN(C)c1ccc(C2=C/C(=C/C=C/c3sc4ccccc4[n+]3C)c3ccccc3O2)cc1", "tested on": "T1, G-quadruplex DNA (Homo sapiens)", "assay": "fluorescence turn-on", "measurement": "binding", "result": "binds"}
{"SMILES": "C=CC(=O)Nc1cccc(Cn2ncc3cnc(Nc4cnn(CCOC)c4)nc32)c1", "tested on": "PIKFYVE human", "assay": "binding, KINOMEscan", "setting": "100 nM", "how to read": "lower = stronger binding", "measurement": "percent of control", "result": "72%"}
{"SMILES": "CC(=O)N[C@@H](CCC(C)C)C(=O)N[C@@H](CCC(=O)O)C(=O)N[C@@H](C)C(=O)N[C@@H](CC(=O)O)C(=O)COC(=O)c1c(C)cccc1C", "tested on": "Caspase-7 (CASP7, Homo sapiens, UniProt P55210)", "assay": "enzyme activity, inhibitor", "measurement": "kinact/KI", "result": "9600 M⁻¹ s⁻¹"}
{"SMILES": "O=C(CCCCCCS)Nc1ccccc1", "tested on": "HDAC8 (Homo sapiens, UniProt Q9BY41)", "assay": "ITC", "test system": "Tris-HCl buffer", "setting": "concentration not given, 298 K", "measurement": "binding stoichiometry", "result": 0.9}
{"SMILES": "C#CCOC(=O)[C@]1(C)C=C(C(=O)OC(C)(C)C)C(=O)CC1", "tested on": "MAPK1 (Homo sapiens, UniProt P28482)", "assay": "enzyme activity, D-SENSOR", "setting": "1.646 µM, single replicate", "measurement": "normalized kinase activity", "result": "0.867 and 0.997 and 0.643"}
{"SMILES": "NS(=O)(=O)c1ccc(N2C(=O)c3ccc(N4CCOCC4)cc3C2=O)cc1", "tested on": "CA2 (Bos taurus, UniProt P00921)", "assay": "binding", "setting": "2 µM, pH 7.2", "how to read": "baseline: without protein", "measurement": "fluorescence turn-on", "result": "13.5 ± 0.6 fold"}
{"SMILES": "Nc1nc2c(ncn2[C@@H]2O[C@H](COP(=O)(O)O)[C@@H](O)[C@H]2O)c(=O)[nH]1", "tested on": "T2, riboswitch RNA, fused to Pepper aptamer", "assay": "fluorescence", "setting": "5 µM", "measurement": "binding", "result": "binds weakly"}
{"SMILES": "CC(=O)[O-].O.O.[O-]c1ccc(Br)cc1C=NCCN1CCOCC1.[Zn+2]", "assay": "FRAP", "setting": "200 µM", "measurement": "ferric reducing power", "result": "45.8%"}
{"SMILES": "CNC(=O)C1CCCN(C(=O)C2CC3CCC2N3C(=O)[C@@H]2C[C@@H](O)CN2C(=O)NCc2cccc(Cl)c2F)C1 (mixture of isomers)", "tested on": "Cytochrome P450 3A4 (CYP3A4, Homo sapiens, UniProt P08684)", "assay": "inhibitor", "test system": "human liver microsomes", "setting": "together with: testosterone", "measurement": "IC50", "result": "> 50000 nM"}
{"SMILES": "COc1ncc2nc(C)n(Cc3ncc(S(N)(=O)=O)cc3F)c2c1-c1ccccc1", "tested on": "DRD1 (Homo sapiens, UniProt P21728)", "assay": "agonist, cell-based", "setting": "10 µM", "measurement": "activation", "result": "-0.505%"}
{"SMILES": "COC(=O)Cc1cc2c(cc1C(=O)c1ccccc1)OCO2", "tested on": "Gria2 (Rattus norvegicus, UniProt P19491)", "assay": "glutamate-evoked current, whole-cell patch clamp", "test system": "HEK-293T", "setting": "concentration not given, pH 7.4, holding potential -60 mV, together with: 10 mM glutamate", "measurement": "current amplitude", "result": "970 ± 83 pA"}
{"note": "Excerpt of the above:"}
{"SMILES": "O=C(Nc1cnccc1-c1ccc([18F])nc1)c1ccnc(NC(=O)C2CC2)c1", "assay": "ex vivo gamma counting", "test system": "FVB/NJ mice, both sexes, adipose tissue", "setting": "intravenous, 120 min, together with: tariquidar 15 mg/kg iv", "measurement": "mean SUV", "result": 0.079}
{"SMILES": "Cc1nn(-c2cccc(N)c2)c(=O)c2cnc(Nc3ccc(N4CCNCC4)cc3)nc12", "tested on": "BLK (Homo sapiens, UniProt P51451)", "assay": "kinase activity, inhibitor, SelectScreen kinase profiling", "measurement": "IC50", "result": "1500 nM"}
{"SMILES": "Fc1ccc(Nc2nc(NC3CCCCC3)c3ccccc3n2)cc1F", "tested on": "ADRB2 (Homo sapiens, UniProt P07550, N148A)", "assay": "β-arrestin2 recruitment, antagonist, BRET", "setting": "mutant N148A", "how to read": "baseline: isoprenaline maximal response", "measurement": "maximal inhibition", "result": "-0.3%"}
{"SMILES": "N[C@H]1CC[C@H](Nc2nccc(-c3cccnc3Oc3ccc(NC(=O)NC4CC4)c4ccccc34)n2)CC1", "tested on": "CDK12 (Homo sapiens, UniProt Q9NYV4)", "assay": "kinobead competition pulldown", "test system": "HEK293/HCT116 lysate mixture", "setting": "10 µM, 1 h, 4 °C", "how to read": "lower = stronger competition", "measurement": "log2 LFQ intensity", "result": 25.6}
